Measured values of several laboratories.
Each line is one published result; not all experiments were run side by side. Values joined by “and” are separate records of one study, mostly repeats; a detail may differ. Numbers after ± are the reported error.
PARP1: Poly [ADP-ribose] polymerase 1 (PARP1, Homo sapiens, UniProt P09874)
UniProt P09874, sequence (whole entry, looked up): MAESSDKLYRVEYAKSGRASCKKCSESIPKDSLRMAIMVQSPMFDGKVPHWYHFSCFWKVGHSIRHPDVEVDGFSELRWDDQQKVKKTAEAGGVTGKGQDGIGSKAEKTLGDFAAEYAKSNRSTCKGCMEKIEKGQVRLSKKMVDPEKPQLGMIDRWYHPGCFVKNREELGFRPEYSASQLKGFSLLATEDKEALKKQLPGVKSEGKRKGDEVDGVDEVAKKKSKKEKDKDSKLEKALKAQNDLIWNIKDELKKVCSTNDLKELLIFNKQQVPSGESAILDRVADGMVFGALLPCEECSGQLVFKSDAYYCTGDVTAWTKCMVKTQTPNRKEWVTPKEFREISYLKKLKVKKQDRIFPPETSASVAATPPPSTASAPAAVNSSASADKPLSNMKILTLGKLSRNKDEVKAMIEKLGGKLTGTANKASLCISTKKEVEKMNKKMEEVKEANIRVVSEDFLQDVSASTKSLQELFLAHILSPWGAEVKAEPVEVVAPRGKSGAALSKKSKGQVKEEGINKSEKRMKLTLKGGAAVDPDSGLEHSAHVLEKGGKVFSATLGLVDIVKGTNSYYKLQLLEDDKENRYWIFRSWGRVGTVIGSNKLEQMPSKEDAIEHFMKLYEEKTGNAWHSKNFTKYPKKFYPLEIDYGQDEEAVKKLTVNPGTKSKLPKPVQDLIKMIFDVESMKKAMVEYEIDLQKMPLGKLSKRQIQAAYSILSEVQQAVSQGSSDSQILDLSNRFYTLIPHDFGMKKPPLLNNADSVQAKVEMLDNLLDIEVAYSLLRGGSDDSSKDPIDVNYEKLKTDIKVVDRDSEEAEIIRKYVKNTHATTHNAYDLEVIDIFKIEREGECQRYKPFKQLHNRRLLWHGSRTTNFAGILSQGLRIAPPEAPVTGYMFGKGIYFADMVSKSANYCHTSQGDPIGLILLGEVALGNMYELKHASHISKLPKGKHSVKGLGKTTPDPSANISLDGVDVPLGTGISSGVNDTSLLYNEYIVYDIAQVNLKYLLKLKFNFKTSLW
FAAH: Fatty-acid amide hydrolase 1 (FAAH, Homo sapiens, UniProt O00519)
UniProt O00519, sequence (whole entry, looked up): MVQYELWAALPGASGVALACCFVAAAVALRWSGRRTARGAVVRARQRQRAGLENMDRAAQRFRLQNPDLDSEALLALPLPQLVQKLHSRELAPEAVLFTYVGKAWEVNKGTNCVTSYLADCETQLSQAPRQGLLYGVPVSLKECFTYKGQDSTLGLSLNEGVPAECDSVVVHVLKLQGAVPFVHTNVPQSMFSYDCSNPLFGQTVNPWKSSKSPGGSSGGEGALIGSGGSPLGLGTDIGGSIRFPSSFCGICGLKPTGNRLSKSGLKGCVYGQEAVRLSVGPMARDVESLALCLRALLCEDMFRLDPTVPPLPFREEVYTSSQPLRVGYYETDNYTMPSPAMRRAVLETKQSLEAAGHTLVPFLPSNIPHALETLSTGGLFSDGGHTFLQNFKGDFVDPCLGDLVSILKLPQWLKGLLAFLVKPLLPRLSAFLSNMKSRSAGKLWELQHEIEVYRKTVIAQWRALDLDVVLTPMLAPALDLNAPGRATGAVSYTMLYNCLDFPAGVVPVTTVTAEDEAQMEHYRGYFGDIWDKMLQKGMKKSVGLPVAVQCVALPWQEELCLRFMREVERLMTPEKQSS
UniProt P35346, sequence (whole entry, looked up): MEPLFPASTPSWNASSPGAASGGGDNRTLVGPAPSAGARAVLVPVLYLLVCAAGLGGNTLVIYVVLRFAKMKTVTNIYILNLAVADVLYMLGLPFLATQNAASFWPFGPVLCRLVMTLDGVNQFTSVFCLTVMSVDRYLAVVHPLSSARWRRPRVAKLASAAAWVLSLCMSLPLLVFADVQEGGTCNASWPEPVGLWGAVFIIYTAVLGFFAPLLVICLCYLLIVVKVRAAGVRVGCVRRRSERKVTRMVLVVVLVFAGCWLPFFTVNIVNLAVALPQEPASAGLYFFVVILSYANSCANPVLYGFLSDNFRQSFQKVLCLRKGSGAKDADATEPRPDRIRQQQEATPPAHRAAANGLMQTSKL
UniProt P07195, sequence (whole entry, looked up): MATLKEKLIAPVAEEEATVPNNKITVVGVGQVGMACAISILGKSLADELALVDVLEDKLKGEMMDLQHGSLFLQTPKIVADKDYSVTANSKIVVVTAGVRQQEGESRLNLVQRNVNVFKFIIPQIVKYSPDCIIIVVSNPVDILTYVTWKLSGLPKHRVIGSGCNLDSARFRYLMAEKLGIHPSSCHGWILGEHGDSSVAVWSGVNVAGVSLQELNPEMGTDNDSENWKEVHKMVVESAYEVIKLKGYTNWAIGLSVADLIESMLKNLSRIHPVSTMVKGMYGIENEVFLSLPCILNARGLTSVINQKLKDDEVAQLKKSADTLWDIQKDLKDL
UniProt Q99677, sequence (whole entry, looked up): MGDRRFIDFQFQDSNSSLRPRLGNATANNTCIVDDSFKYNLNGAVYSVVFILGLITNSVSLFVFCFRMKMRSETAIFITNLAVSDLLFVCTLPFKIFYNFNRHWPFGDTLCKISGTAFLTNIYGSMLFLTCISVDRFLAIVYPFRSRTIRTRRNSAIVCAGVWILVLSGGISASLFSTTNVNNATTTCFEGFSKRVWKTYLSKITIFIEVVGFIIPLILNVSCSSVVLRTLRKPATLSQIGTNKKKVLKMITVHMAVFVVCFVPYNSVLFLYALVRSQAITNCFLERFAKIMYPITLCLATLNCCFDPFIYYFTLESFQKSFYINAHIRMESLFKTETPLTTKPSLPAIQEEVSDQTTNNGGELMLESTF
UniProt Q86U42, sequence (whole entry, looked up): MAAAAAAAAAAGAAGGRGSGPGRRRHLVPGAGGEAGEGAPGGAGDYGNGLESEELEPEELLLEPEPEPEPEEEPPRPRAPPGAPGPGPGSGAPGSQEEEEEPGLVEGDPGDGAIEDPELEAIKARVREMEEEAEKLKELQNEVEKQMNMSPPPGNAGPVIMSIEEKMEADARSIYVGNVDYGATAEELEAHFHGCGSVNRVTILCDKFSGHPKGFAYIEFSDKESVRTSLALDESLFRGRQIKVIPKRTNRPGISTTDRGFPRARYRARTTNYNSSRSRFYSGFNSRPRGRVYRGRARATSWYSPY
UniProt Q8TDX7, sequence (whole entry, looked up): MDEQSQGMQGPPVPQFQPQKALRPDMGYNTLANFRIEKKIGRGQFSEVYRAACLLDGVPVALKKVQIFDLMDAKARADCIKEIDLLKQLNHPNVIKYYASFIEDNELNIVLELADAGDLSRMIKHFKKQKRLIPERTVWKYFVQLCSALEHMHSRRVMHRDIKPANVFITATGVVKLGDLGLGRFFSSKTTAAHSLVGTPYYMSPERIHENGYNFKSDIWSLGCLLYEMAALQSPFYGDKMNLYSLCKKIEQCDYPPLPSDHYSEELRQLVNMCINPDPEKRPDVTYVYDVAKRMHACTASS
UniProt P17948, sequence (whole entry, looked up): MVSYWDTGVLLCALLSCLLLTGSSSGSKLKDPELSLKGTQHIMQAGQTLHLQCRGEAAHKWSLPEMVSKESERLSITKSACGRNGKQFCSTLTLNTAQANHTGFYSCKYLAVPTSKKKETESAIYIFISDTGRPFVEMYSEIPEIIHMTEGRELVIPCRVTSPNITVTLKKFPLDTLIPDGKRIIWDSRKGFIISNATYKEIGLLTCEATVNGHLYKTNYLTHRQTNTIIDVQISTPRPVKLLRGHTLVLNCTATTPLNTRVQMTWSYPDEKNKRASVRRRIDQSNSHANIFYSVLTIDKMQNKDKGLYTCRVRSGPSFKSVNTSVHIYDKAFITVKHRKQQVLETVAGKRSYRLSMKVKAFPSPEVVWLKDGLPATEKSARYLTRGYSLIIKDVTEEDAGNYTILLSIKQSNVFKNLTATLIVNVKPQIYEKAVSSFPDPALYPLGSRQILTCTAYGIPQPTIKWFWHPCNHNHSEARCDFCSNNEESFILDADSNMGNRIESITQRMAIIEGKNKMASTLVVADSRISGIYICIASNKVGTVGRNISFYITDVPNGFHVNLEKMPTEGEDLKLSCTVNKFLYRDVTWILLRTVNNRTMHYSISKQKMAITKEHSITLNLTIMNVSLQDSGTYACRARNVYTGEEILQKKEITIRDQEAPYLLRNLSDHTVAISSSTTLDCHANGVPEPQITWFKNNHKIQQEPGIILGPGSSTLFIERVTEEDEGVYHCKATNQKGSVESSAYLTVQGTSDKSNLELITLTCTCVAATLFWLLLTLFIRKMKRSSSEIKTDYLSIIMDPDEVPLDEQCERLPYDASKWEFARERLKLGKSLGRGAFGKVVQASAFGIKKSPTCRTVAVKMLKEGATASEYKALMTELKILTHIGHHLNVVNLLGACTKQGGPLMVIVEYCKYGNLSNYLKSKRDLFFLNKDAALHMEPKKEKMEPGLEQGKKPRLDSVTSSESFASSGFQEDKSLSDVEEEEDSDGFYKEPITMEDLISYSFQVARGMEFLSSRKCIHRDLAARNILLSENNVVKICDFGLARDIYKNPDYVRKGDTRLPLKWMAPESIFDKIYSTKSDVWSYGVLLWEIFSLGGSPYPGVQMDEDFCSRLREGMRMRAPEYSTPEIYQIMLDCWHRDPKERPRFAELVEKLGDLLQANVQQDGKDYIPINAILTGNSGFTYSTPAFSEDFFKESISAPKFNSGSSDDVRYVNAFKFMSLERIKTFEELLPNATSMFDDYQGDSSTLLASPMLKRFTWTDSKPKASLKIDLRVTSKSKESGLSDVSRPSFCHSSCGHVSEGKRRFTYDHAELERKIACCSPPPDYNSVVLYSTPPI
UniProt Q9BY41, sequence (whole entry, looked up): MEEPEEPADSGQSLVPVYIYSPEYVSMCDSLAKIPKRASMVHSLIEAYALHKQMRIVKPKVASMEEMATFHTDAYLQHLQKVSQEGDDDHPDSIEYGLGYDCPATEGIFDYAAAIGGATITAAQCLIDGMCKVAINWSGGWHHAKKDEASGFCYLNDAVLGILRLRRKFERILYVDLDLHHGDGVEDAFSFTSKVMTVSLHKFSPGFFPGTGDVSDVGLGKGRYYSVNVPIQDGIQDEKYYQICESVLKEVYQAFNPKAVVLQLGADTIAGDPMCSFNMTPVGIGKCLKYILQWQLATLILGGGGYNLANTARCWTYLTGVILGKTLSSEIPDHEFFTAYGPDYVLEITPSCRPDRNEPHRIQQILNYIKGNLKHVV

Structure (SMILES) | target | assay | system | setting | IC50
Cn1ccnc1C(=O)C1CC1c1ccc(CC(=O)Nc2ccc(Br)cc2)cc1 (stereo not shown) | HDAC8 (Homo sapiens, UniProt Q9BY41) | enzyme activity, inhibitor | – | – | 8.5 µM
C=C(C)CCOP(=O)(O)OP(=O)(O)OP(=O)(O)OC[C@H]1O[C@@H](n2cnc3c(N)ncnc32)[C@H](O)[C@@H]1O | NEK7 (Homo sapiens, UniProt Q8TDX7) | enzyme activity, inhibitor, HotSpot kinase | – | together with: ATP 1 µM | 2.7 µM
NC(=O)c1cccc2c1O[C@@H](CO)CO2 | PARP1 | – | – | – | 7.8 ± 2.7 µM
CCCN1CCC(c2cccc(S(C)(=O)=O)c2)CC1 | Cytochrome P450 2D6 (CYP2D6, Homo sapiens, UniProt P10635) | enzyme activity, inhibitor | human, liver microsomes | 3 h, pH 7.4, with preincubation | 3.9 µM
COc1cccc2cc(-c3nnc(SCC(=O)Nc4ccc(Cl)c(Cl)c4)n3-c3ccccc3)oc12 | fungal tyrosinase | enzyme activity, inhibitor, dopachrome absorbance | – | pH 6.8, 37 °C, together with: L-tyrosine substrate | 1.73 ± 3.8 µM
C[C@H]1C[C@H]2[C@@H]3CCC4=CC(=O)C=C[C@]4(C)[C@@]3(Cl)[C@@H](O)C[C@]2(C)[C@@]1(O)C(=O)CO | FLT1 (Homo sapiens, UniProt P17948) | – | – | – | > 10 µM
COC(=O)c1ccc(NC(=O)Cn2c(=S)n(-c3ccccc3)c(=O)c3ccccc32)cc1 | PARP1 | enzyme activity | – | – | 0.0557 µM
Nc1nc2c(ncn2[C@@H]2O[C@H](COP(=O)(O)O)[C@@H](O)[C@H]2O)c(=O)[nH]1 | nucleoside diphosphate kinase A/B human | autophosphorylation, inhibitor | native membranes | 4 °C, biphasic curve, unreliable | ~30 µM
CC(C)Oc1c(Cl)cc(Cl)cc1CN[C@H]1CCCN(c2nc3nc(Cl)ccc3[nH]2)C1 | Methionyl-tRNA synthetase, putative (Trypanosoma brucei brucei, UniProt Q38C91) | enzyme activity, inhibitor | – | – | > 0.3 µM
O=C(O)C1=CC(=C(c2ccc(O)c(C(=O)O)c2)c2ccc(O)c(C(=O)O)c2)C=CC1=O | PABPN1 (Homo sapiens, UniProt Q86U42) | inhibitor, AlphaScreen counterscreen | – | – | 4.38 µM
O=C(OCc1ccccc1)c1ccc([N+](=O)[O-])cc1 | FAAH | enzyme activity, inhibitor, fluorescence | – | with preincubation | > 100 µM
O=C(O)CC(C(=O)O)[C@@H]1CCN[C@H]1C(=O)O (relative stereo) | AMPA receptor, rat | binding | cortical synaptosomes | together with: [3H]-AMPA | > 100 µM
O=C(Nc1cc(Cl)c(F)c(Cl)c1)c1cc(S(=O)(=O)N2CCOCC2)c(Cl)cc1Cl | LPAR4 (Homo sapiens, UniProt Q99677) | Ca2+ mobilization, antagonist | CHO | together with: LPA at EC50 | > 100 µM
CC(C)NCc1ccc(C[C@@H]2NC(=O)[C@H](N(C)C(=O)c3ccc4ccccc4c3)NC(=O)[C@H](Cc3ccccc3)NC(=O)[C@H](N)CSSC[C@@H](C(=O)N[C@@H](Cc3ccc4ccccc4c3)C(N)=O)NC(=O)[C@H](Cc3ccccc3)NC2=O)cc1 | SSTR5 (Homo sapiens, UniProt P35346) | ligand displacement, radioligand | – | cell membranes | 0.635 µM and 0.279 µM
CC/C(=C(/c1ccc(O)cc1)c1ccc(OCCN(C)C)cc1)c1ccccc1 | SCN2A (Homo sapiens, UniProt Q99250) | ion current, inhibitor, patch clamp | – | – | 4.2 µM
COC(=O)c1cc2c(C(F)(F)F)cc(-c3ccccc3)cc2n1O | LDHB (Homo sapiens, UniProt P07195) | inhibitor, NADH fluorescence | – | pyruvate competition, together with: 150 µM NADH, 200 µM pyruvate | 53.8 ± 4.4 µM
NC(=S)c1ccncc1 | Urea transporter 2 (Rattus norvegicus, UniProt Q62668) | urea transport, inhibitor | MDCK expressing rat UT-A1 | 20 min | > 15000 µM
O=C(NC1CCCCC1)OCc1cn(Cc2cccc(F)c2)nn1 | FAAH | enzyme activity, inhibitor, fluorescence | – | cell membranes | 0.18 µM
Cc1ncc([N+](=O)[O-])n1CC(C)O (stereo not shown) | Cytochrome P450 1A2 (CYP1A2, Homo sapiens, UniProt P05177) | enzyme activity, inhibitor | human liver microsomes | 30 min, together with: phenacetin | > 500 µM
